Measurements from different studies.

SMILES	target or system	test	test system	setting	scale	quantity	value
CCCCCC[N+](C)(C)CCCCCCCCCCOc1cc(OCCCCCCCCCC[N+](C)(C)CCCCCC)cc(OCCCCCCCCCC[N+](C)(C)CCCCCC)c1.[Br-].[Br-].[Br-]	Enterococcus faecalis	–	OG1RF	–	–	MIC	4 µM
C=CC(=O)Nc1cccc(Cn2ncc3cnc(Nc4cnn(CCOC)c4)nc32)c1	human TRKB	KINOMEscan	–	100 nM	relative to: control	binding	56%
COC1C=COC2(C)Oc3c(C)c(O)c4c(c3C2=O)C2=NC3(CCN(CC(C)C)CC3)NC2=C(NC(=O)C(C)=CC=CC(C)C(O)C(C)C(O)C(C)C(OC(=O)Nc2cnccn2)C1C)C4=O (stereo not drawn)	Mycobacteroides abscessus	–	ATCC 19977	single-strain MIC	–	MIC	40 µg/mL
Cc1c(CN(C)C(=O)/C=C/c2cnc3c(c2)CC(N)C(=O)N3)oc2ccccc12 (stereo not drawn)	Acinetobacter baumannii	broth microdilution	AR-0288	–	–	MIC	32 µg/mL
COC1CN([C@H]2CC[C@H]([C@@]3(C)Oc4c(Cl)cc(C(=O)NCc5c(SC)cc(C)[nH]c5=O)c(C)c4O3)CC2)C1	–	RNA-seq, measured: OSGIN2	human, whole blood	dose not given, 24 h	relative to: pretreatment baseline	log2 fold change	1.13
Oc1c(Br)cc(Br)c2nc3c(C(F)(F)F)cc(C(F)(F)F)cc3nc12	Staphylococcus aureus	–	129 MRSA clinical isolate	–	–	MIC	0.1 µM
CCCCCCCCn1cc[n+](CCCCCCOc2cc(OCCCCCC[n+]3ccn(CCCCCCCC)c3)cc(OCCCCCC[n+]3ccn(CCCCCCCC)c3)c2)c1.[Br-].[Br-].[Br-]	Enterococcus faecalis	–	OG1RF	–	–	MIC	1 µM
CNS(=O)(=O)Nc1nccc(Cc2c(C)c3ccc(Oc4ncccc4F)cc3oc2=O)c1F	BV-173	cell viability	–	7 days	–	IC50	0.71 µM
CCCC(C)Oc1cccc(NC(=O)c2cccnc2)c1 (stereo not drawn)	Pichia kudriavzevii	microbial growth, broth dilution	ATCC6258	–	–	MIC	128 µg/mL
C[C@@H]1C(=O)O[C@@H](C)/C=C/C=C\[C@@H](C)[C@@H]2C=C[C@@H]3C[C@@]4(C)O[C@H]4[C@@H](C)[C@H]3[C@@H]2C(=O)C(Cl)(Cl)C1=O	Staphylococcus aureus	–	MRSA clinical isolate	resistant OXA/CIP/CLI/ERY	–	MIC	0.05 µg/mL
CCCCCCCC[N+](C)(C)CCCCCCCCOc1cc(OCCCCCCCC[N+](C)(C)CCCCCCCC)cc(OCCCCCCCC[N+](C)(C)CCCCCCCC)c1.[Br-].[Br-].[Br-]	Enterococcus faecalis	–	OG1RF	–	–	MIC	1 µM
C=C(NC(=O)c1csc(-c2nc3c(cc2O)-c2nc(cs2)C(=O)NC(C(C)O)C(=O)NC(=C(C)OC)c2nc(cs2)C(=O)NC2c4nc(cs4)C(=O)NC(COC(=O)c4c5c6c(cccc6n4O)COC(=O)C(OC4CC(C)(O)C(N(C)C)C(C)O4)C2OC5)c2nc-3cs2)n1)C(N)=O (stereo not drawn)	Streptococcus pneumoniae	microbial growth, agar dilution	ATCC49619	–	–	MIC	0.0078 µg/mL
Cc1ncsc1-c1ccc(C(C)NC(=O)C2CC(O)CN2C(=O)C(NC(=O)CCCCCCCCCCN2CCCC(Nc3ncc(Cl)c(Nc4ccccc4S(=O)(=O)C(C)C)n3)C2)C(C)(C)C)cc1 (stereo not drawn)	22Rv1	RNA-seq, measured: NBPF12 mRNA	–	concentration not given	relative to: DMSO	log2 fold change	-1.09
Nc1ncc(-c2cc(-c3cnn(CC(F)(F)F)c3)ncc2F)nc1C(=O)NC1CNCC(F)C1 (stereo not drawn)	DAPK1	KINOMEscan	–	1 µM	relative to: DMSO control	remaining binding	94%
CC1C=CC=CC(C)C2C=CC3CC(C)(O)C(Cl)C(C)C3C2C(=O)C(Cl)(Cl)C(=O)C(C)C(=O)O1 (stereo not drawn)	Staphylococcus aureus	–	MRSA clinical isolate	resistant OXA/CLI/ERY	–	MIC	0.1 µg/mL
